Results of several laboratories.
Protocols differ between the studies behind these lines.
Organism: Acinetobacter baumannii

Compound | method | strain | time | temperature | notes | MIC
CC1(C)S[C@@H]2[C@H](NC(=O)[C@H](N)c3ccc(O)cc3)C(=O)N2[C@H]1C(=O)O | broth microdilution | BNCC 194496 |  |  |  | 8 µg/mL
CN(C)c1ccc2nc3ccc(=[N+](C)C)cc-3sc2c1 |  | ATCC BAA-1797, resistant | 18 h | 37 °C | LED light 10 min, 1.57 mW | > 128 µM
C[C@@H](O)[C@H]1C(=O)N2C(C(=O)O)=C(S[C@@H]3CN[C@H](C(=O)N(C)C)C3)[C@H](C)[C@H]12 |  | clinical isolate 1A3 |  |  |  | 96 µg/mL
CO/N=C(\C(=O)N[C@@H]1C(=O)N2C(C(=O)O)=C(COC(C)=O)CS[C@H]12)c1csc(N)n1 | broth microdilution |  | 24 h | 37 °C | clinical isolate | > 400 µM
O=[N+]([O-])c1ccc(O)c2ncccc12 |  | 17978 |  |  |  | 9.38 µM
CC(=O)NC[C@H]1CN(c2ccc(N3CCOCC3)c(F)c2)C(=O)O1 | broth microdilution | ATCC 17978 |  |  |  | 640 µM
O=C(N[C@H](CO)[C@H](O)c1ccc([N+](=O)[O-])cc1)C(Cl)Cl | broth microdilution | NCTC 13424 | 20 h |  | 5% CO2 | 64 µg/mL
Cc1cc(Nc2ccc(S(F)(F)(F)(F)F)cc2)n2ccnc2n1 |  | TMH1 clinical isolate |  |  |  | 1.09 µg/mL
CC[C@H]1OC(=O)[C@H](C)C(=O)[C@H](C)[C@@H](O[C@@H]2O[C@H](C)C[C@H](N(C)C)[C@H]2O)[C@](C)(OC)C[C@@H](C)C(=O)[C@H](C)[C@H]2N(CCCCn3cnc(-c4cccnc4)c3)C(=O)O[C@]12C | broth microdilution | ATCC 17978 |  |  |  | 20 µM
Cc1c(CN(C)C(=O)/C=C/c2cnc3c(c2)CC(CCN)C(=O)N3)oc2ccccc12.Cl (stereo not shown) | broth microdilution | KB304 |  |  |  | 64 µg/mL
c1ccc(OCCn2c(CNCC34CC5CC(CC(C5)C3)C4)nc3ccccc32)cc1 |  | ATCC 17961 |  |  |  | > 128 µg/mL
CN(C)[C@@H]1C(O)=C(C(N)=O)C(=O)[C@@]2(O)C(O)=C3C(=O)c4c(O)cccc4[C@@](C)(O)[C@H]3C[C@@H]12 | broth microdilution | NCTC 13424 | 20 h |  | ambient air | 512 µg/mL
NC[C@H]1O[C@H](O[C@H]2[C@H](O)[C@@H](O[C@H]3O[C@H](CO)[C@@H](O)[C@H](N)[C@H]3O)[C@H](N)C[C@@H]2N)[C@H](O)[C@@H](O)[C@@H]1O | broth microdilution | clinical isolate |  |  |  | > 200 µM
CN[C@@H]1[C@@H](O[C@H]2O[C@H](CO)[C@@H](N)[C@H](O)[C@H]2O)OC2C[C@@H](N)[C@@H](O[C@H]3[C@H](O)[C@@H](O)[C@H](N)C[C@@H]3N)OC2[C@@H]1O (stereo partly shown) | broth microdilution | NCTC 13424 | 20 h |  | 5% CO2 | 8 µg/mL
C=C[C@]1(C)C[C@@H](OC(=O)CS[C@@H]2C[C@H]3CC[C@@H](C2)N3C)[C@]2(C)[C@H](C)CC[C@]3(CCC(=O)[C@H]32)[C@@H](C)[C@@H]1O | broth microdilution | ATCC 17978 |  |  |  | 160 µM
Cc1c(CN(C)C(=O)/C=C/c2cnc3c(c2)CC(NC(=O)OC(C)(C)C)C(=O)N3)oc2ccccc12 (stereo not shown) | broth microdilution | AR-0083 |  |  |  | > 32 µg/mL

Repeated from above:
Compound | method | strain | time | temperature | notes | MIC
Cc1c(CN(C)C(=O)/C=C/c2cnc3c(c2)CC(CCN)C(=O)N3)oc2ccccc12.Cl (stereo not shown) | broth microdilution | KB304 |  |  |  | 64 µg/mL
C=C[C@]1(C)C[C@@H](OC(=O)CS[C@@H]2C[C@H]3CC[C@@H](C2)N3C)[C@]2(C)[C@H](C)CC[C@]3(CCC(=O)[C@H]32)[C@@H](C)[C@@H]1O | broth microdilution | ATCC 17978 |  |  |  | 160 µM
